Measured values from different studies.
± marks the error that the study gave.

Structure (SMILES) | test | system | setting | how to read | endpoint | result
COc1ccc(C)cc1NC(=O)OC1CC2CCCC(C1)N2Cc1ccc(CC[18F])cc1 (centres unmarked) | – | BALB/c mice, EMT6 tumour | 1 h | relative to: tumour over blood | tumour to tissue ratio | 3.86
CSCC[C@H](NC(=O)CNC(=O)[C@H](CCCCN)NC(=O)[C@H](CC(C)C)NC(=O)[C@@H]1CCCN1C(=O)[C@H](CO)NC(=O)[C@H](Cc1c[nH]cn1)NC(=O)[C@H](Cc1c[nH]c2ccccc12)NC(=O)[C@H](CCCNC(=N)N)NC(=O)[C@H](CC(C)C)NC(=O)[C@H](CCCNC(=N)N)NC(=O)[C@H](Cc1c[nH]c2ccccc12)NC(=O)[C@H](CS)NC(=O)CCCCCNC(=O)CN1CCN(CC(=O)O)CCN(CC(=O)O)CCN(CC(=O)O)CC1)C(=O)O [copper-64 labelled] | – | BALB/c nude mice, Huh-7 xenograft, tumour | intravenous, 1.85 MBq, 1 h | – | tumour uptake | 3.77 %ID/g
NC(=O)[C@@H](CCCCNC(=O)CNC(=O)CCC(=O)NCCc1c[nH]cn1)NC(=O)[C@@H](Cc1ccc(O)cc1)NC(=O)[C@@H](CCCCNC(=O)CNC(=O)CCC(=O)NCCc1c[nH]cn1)NC(=O)Cc1ccc(CN2CCN(CC(=O)O)CCN(CC(=O)O)CC2)cc1 [fluorine-18 labelled] | – | nude mice, tumour-bearing, tumour | intravenous, 3 h, together with: TF2 106 µg i.v. 16 h before | – | tumour uptake | 26.5 ± 6 %ID/g
C=Cc1c(C)c2cc3nc(c(CC(=O)O)c4[nH]c(cc5nc(cc1[nH]2)C(C)=C5CC)c(C)c4C(=O)O)[C@@H](CCC(=O)NCCCC[C@H](NC(C)=O)C(=O)N[C@@H](Cc1ccccc1)C(=O)N[C@@H](Cc1ccccc1)C(=O)N[C@H](C(=O)N[C@@H](CC(C)C)C(=O)N[C@@H](CCCCN)C(=O)N[C@@H](CO)C(=O)NCC(=O)N[C@@H](CCC(N)=O)C(=O)NCC(=O)N[C@@H](Cc1ccc(O)cc1)C(=O)N[C@@H](CCCNC(=N)N)C(=O)N[C@@H](Cc1c[nH]c2ccccc12)C(=O)N[C@@H](CC(=O)O)C(=O)N[C@@H](CO)C(=O)N[C@@H](Cc1ccc(O)cc1)C(=O)N[C@@H](CCCNC(=N)N)C(=O)N[C@@H](Cc1c[nH]c2ccccc12)C(=O)N[C@@H](Cc1c[nH]cn1)C(=O)N1CCC[C@H]1C(=O)N[C@@H](CO)C(=O)N[C@@H](CS)C(=O)N[C@@H](C)C(=O)N[C@@H](CS)C(=O)NCC(=O)NCC(=O)N[C@@H](CO)C(=O)N[C@@H](CCCCN)C(N)=O)C(C)C)[C@@H]3C | ex vivo fluorescence imaging | 4T1 tumour-bearing mice | intravenous, 13 mg/kg | – | tumour fluorescence duration | 48 h
CC(C)C[C@@H](NC(=O)[C@@H](CCCNC(=N)N)NC(=O)[C@@H](Cc1c[nH]cn1)NC(=O)[C@@H](Cc1c[nH]c2ccccc12)NC(=O)[C@@H](Cc1c[nH]cn1)NC(=O)[C@@H](Cc1ccccc1)NC(=O)[C@H](NC(=O)[C@@H](Cc1ccc(O)cc1)NC(=O)CNC(=O)CNC(=O)CCOCCOCCOCCNC(=O)CN1CCN(CC(=O)O)CCN(CC(=O)O)CC1)[C@H](C)O)C(=O)N[C@H](CC(N)=O)C(=O)N1CCC[C@@H]1C(=O)O [gallium-68 labelled] | – | male C57BL/6 mice, tumour | intravenous, 1.85 MBq, 60 min, together with: GP12 blocking | relative to: tumour over muscle | tumour to muscle ratio | 1.09 ± 0.3
[3H]c1sc(C)nc1C=C(C)C1CC2C(CCCC(C)C(O)C(C)C(=O)C(C)(C)C(O)CC(=O)O1)N2CCO (centres unmarked) | – | CD2F1 mice, M109 tumour (FR−) | intravenous, 2.2 nmol/kg, 6 h | – | tumour concentration | 260 ± 70 ng/g
COc1cc2ncnc(Oc3cccc(N[11C](=O)Nc4cc(C(C)(C)C(F)(F)F)on4)c3)c2cc1OC | dynamic PET | female Balb/c nude mice, A375 xenograft, tumour | intravenous, 60 min | – | tumour uptake | 0.69 ± 0.08 %ID/g
CCCC[C@H]1C(=O)N(C)[C@@H](CCCC)C(=O)N[C@@H](CCCNC(=O)CN2CCN(CC(=O)O)CCN(CC(=O)O)CCN(CC(=O)O)CC2)C(=O)N[C@H](C(=O)NCC(N)=O)CSCC(=O)N[C@@H](Cc2ccc(O)cc2)C(=O)N(C)[C@@H](C)C(=O)N[C@@H](CC(N)=O)C(=O)N2CCC[C@H]2C(=O)N[C@@H](Cc2c[nH]cn2)C(=O)N[C@@H](CC(C)C)C(=O)N(C)CC(=O)N[C@@H](Cc2c[nH]c3ccccc23)C(=O)N[C@@H](CO)C(=O)N[C@@H](Cc2c[nH]c3ccccc23)C(=O)N1C [gallium-68 labelled] | static PET | NOD/SCID mice, CHO-hPD-L1 xenograft, CHO-hPD-L1 tumour | intravenous, 60 min post injection | – | tumour uptake | 5.8 ± 0.36 %ID/g

Excerpt of the above:
Structure (SMILES) | test | system | setting | how to read | endpoint | result
CCCC[C@H]1C(=O)N(C)[C@@H](CCCC)C(=O)N[C@@H](CCCNC(=O)CN2CCN(CC(=O)O)CCN(CC(=O)O)CCN(CC(=O)O)CC2)C(=O)N[C@H](C(=O)NCC(N)=O)CSCC(=O)N[C@@H](Cc2ccc(O)cc2)C(=O)N(C)[C@@H](C)C(=O)N[C@@H](CC(N)=O)C(=O)N2CCC[C@H]2C(=O)N[C@@H](Cc2c[nH]cn2)C(=O)N[C@@H](CC(C)C)C(=O)N(C)CC(=O)N[C@@H](Cc2c[nH]c3ccccc23)C(=O)N[C@@H](CO)C(=O)N[C@@H](Cc2c[nH]c3ccccc23)C(=O)N1C [gallium-68 labelled] | static PET | NOD/SCID mice, CHO-hPD-L1 xenograft, CHO-hPD-L1 tumour | intravenous, 60 min post injection | – | tumour uptake | 5.8 ± 0.36 %ID/g
